Measured values pooled from the literature.
pIC50: −log10 of the molar value.
Target: Cytochrome P450 2D6 (CYP2D6, Homo sapiens, UniProt P10635)
UniProt P10635, sequence (whole entry, looked up): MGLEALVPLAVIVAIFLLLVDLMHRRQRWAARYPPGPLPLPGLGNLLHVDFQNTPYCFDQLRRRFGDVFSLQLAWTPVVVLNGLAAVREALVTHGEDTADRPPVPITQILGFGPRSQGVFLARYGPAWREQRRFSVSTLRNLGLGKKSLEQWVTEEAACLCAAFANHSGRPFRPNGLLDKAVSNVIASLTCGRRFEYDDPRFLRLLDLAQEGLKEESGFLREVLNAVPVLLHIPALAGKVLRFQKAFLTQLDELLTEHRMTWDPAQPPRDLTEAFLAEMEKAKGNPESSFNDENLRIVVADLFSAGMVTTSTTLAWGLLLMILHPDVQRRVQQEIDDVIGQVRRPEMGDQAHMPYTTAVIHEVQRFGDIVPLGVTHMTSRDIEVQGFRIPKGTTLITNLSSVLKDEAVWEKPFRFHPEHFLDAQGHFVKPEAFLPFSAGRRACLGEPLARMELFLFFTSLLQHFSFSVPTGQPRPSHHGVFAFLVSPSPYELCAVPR

Structure (SMILES) | assay | system | conditions | how to read | measurement | value
COC(=O)/C=C/C(=O)O | – | human liver microsomes | up to 750 µM, 10 min, added: bufuralol | – | maximum reversible inhibition | 30%
C1CCC(C(CC2CCCCN2)C2CCCCC2)CC1 (centres unmarked) | – | HepG2 overexpressing CYP2D6 | 5 to 10 µM, 24 h | baseline: empty vector control | ATP level and LDH release | decreased
CC1=N[C@]2(C(=O)CO)[C@@H](C[C@H]3[C@@H]4C[C@@H](O)C5=CC(=O)C=C[C@]5(C)[C@H]4[C@@H](O)C[C@@]32C)O1 | enzyme activity, inhibitor | human, liver microsomes | with preincubation | – | pIC50 | < 4.30
COc1cc(OC)c(Cl)c(CCc2cnc3ccn(S(=O)(=O)c4c[nH]cn4)c3n2)c1Cl | enzyme activity, inhibitor | human, liver microsomes | 10 µM, 20 min, pH 7.4 | – | inhibition | 78%
Cc1noc(C)c1Cn1cc(N2C(=O)CN(Cc3cccc(O)c3)C2=O)cn1 | enzyme activity, inhibitor, fluorescence | Sf9 | 10 µM | – | inhibition | 8%
COc1cc(CCc2cnc3ccn(S(=O)(=O)c4c[nH]cn4)c3n2)cc(OC)c1 | enzyme activity, inhibitor | human, liver microsomes | 10 µM, 20 min, pH 7.4 | – | inhibition | 90%
Cc1noc(C)c1Cn1cc(N2C(=O)N(Cc3cccc(O)c3)C(C)(C)C2=O)cn1 | enzyme activity, inhibitor, fluorescence | Sf9 | 10 µM | – | inhibition | 3%
Cc1ncccc1NC(=O)c1ccc2c(c1)CC[C@@H]1C[C@@](O)(C(F)(F)F)CC[C@@]21Cc1ccccc1 | inhibitor, time-dependent inhibition, item: dextrorphan formation | pooled human liver microsomes | added: dextromethorphan 14.4 µM | – | kinact | 0.000217 s⁻¹

Repeated from above:
Structure (SMILES) | assay | system | conditions | how to read | measurement | value
COc1cc(CCc2cnc3ccn(S(=O)(=O)c4c[nH]cn4)c3n2)cc(OC)c1 | enzyme activity, inhibitor | human, liver microsomes | 10 µM, 20 min, pH 7.4 | – | inhibition | 90%
